Measurements from different studies.
Protocols differ between the studies behind these lines.
B1: dnaG P16 domain 453-597 (Geobacillus stearothermophilus, UniProt Q9X4D0); sequence looked up; chain AKKLLPAFQNAERLLLAHMMRSRDVALVVQERIGGRFNIEEHRALAAYIYAFYEEGHEADPGALISRIPGELQPLASDVSLLLIADDVSEQELEDYIRHVLNRPKWLMLKVKEQEKTEAERRKDFLTAARIAKEMIEMKKMLSSS
B2: ranibizumab Fab; V domains shown; VH EVQLVESGGGLVQPGGSLRLSCAASGYDFTHYGMNWVRQAPGKGLEWVGWINTYTGEPTYAADFKRRFTFSLDTSKSTAYLQMNSLRAEDTAVYYCAKYPYYYGTSHWYFDVWGQGTLVTVSS; VL DIQLTQSPSSLSASVGDRVTITCSASQDISNYLNWYQQKPGKAPKVLIYFTSSLHSGVPSRFSGSGSGTDFTLTISSLQPEDFATYYCQQYSTVPWTFGQGTKVEIK
B3: KtrA/KtrC heteromeric RCK ring (Bacillus subtilis); chain 1 MGRIKNKQFAVIGLGRFGGSICKELHRMGHEVLAVDINEEKVNAYASYATHAVIANATEENELLSLGIRNFEYVIVAIGANIQASTLTTLLLKELDIPNIWVKAQNYYHHKVLEKIGADRIIHPEKDMGVKIAQSLSDENVLNYIDLSDEYSIVELLATRKLDSKSIIDLNVRAKYGCTILAIKHHGDICLSPAPEDIIREQDCLVIMGHKKDIKRFENEGM; chain 2 MKKEFAVIGLGRFGGSICKALSEEGVEVMAMDIDEDKVNEYAKIASHAVIGDSTDESVLKNLGLRNFDHVIVAIGENIQASILTTLILKELGVHTITVKAQNDYHEKVLSKIGADHIVHPERDMAKRIAHNIVSNNVLDYLELSEEHSLVEIVANSRLAGNTLLDLDIRAKYGINIVAIKRGKEVIVSPLATEVIHQEDILIVIGSVTDISRFEKRVLHTK
B4: POL30 1-258 (Saccharomyces cerevisiae, UniProt P15873); chain MLEAKFEEASLFKRIIDGFKDCVQLVNFQCKEDGIIAQAVDDSRVLLVSLEIGVEAFQEYRCDHPVTLGMDLTSLSKILRCGNNTDTLTLIADNTPDSIILLFEDTKKDRIAEYSLKLMDIDADFLKIEELQYDSTLSLPSSEFSKIVRDLSQLSDSINIMITKETIKFVADGDIGSGSVIIKPFVDMEHPETSIKLEMDQPVDLTFGAKYLLDIIKGSSLSDRVGIRLSSEAPALFQFDLKSGFLQFFLAPKFNDEE
B5: GCN5 (Oryza sativa, UniProt Q338B9); sequence looked up; chain MDGLAAPSPSHSGATSGGGASHRKRKLPPSSLSDATADEDDDTTAPSSPSTSPSSPSRPSSPSSSHSDDDDDDSLHTFTAARLDGAPPSSSGRPPKPESSTVSAAAAAAAAAAAPKPDSASAAAGDGKEDPKGLFTDNIQTSGAYSAREEGLKREEEAGRLKFLCYSNDGVDEHMIWLVGLKNIFARQLPNMPKEYIVRLVMDRTHKSMMVIRNNIVVGGITYRPYTSQKFGEIAFCAITADEQVKGYGTRLMNHLKQHARDADGLTHFLTYADNNAVGYFVKQGFTKEITLDKERWQGYIKDYDGGILMECRIDQKLPYVDLATMIRRQRQAIDEKIRELSNCHIVYSGIDFQKKEAGIPRRTMKPEDIQGLREAGWTPDQWGHSKSRSAFSPDYSTYRQQLTNLMRSLLKNMNEHPDAWPFKEPVDSRDVPDYYDIIKDPIDLKTMSKRVESEQYYVTLEMFVADMKRMFSNAKTYNSPDTIYYKCASRLESFFSNKVASQLAQASTKN
B6: PSMG3 1-122 (Homo sapiens, UniProt Q9BT73); chain MEDTPLVISKQKTEVVCGVPTQVVCTAFSSHILVVVTQFGKMGTLVSLEPSSVASDVSKPVLTTKVLLGQDEPLIHVFAKNLVAFVSQEAGNRAVLLAVAVKDKSMEGLKALREVIRVCQVW
B7: TIM9 1-87 (Saccharomyces cerevisiae, UniProt O74700); chain MDALNSKEQQEFQKVVEQKQMKDFMRLYSNLVERCFTDCVNDFTTSKLTNKEQTCIMKCSEKFLKHSERVGQRFQEQNAALGQGLGR
B8: Arp2 (Acanthamoeba castellanii, UniProt P53487); sequence looked up; chain MTDSSKVIVCDNGTGFVKCGFARSNFPASIFPSMVGRPILRSEEKFDNVEIKDIMVGDEASKLRSMLQITYPLDNGIVRNWEDAEHVWNYTFFEKLKVDPKDCKILLTEPPMNPLANREKMVQVMFEKYGFKAAYIAIQAVLTLYAQGLLTGVVVDSGDGVTHIVPVYEGFSLPHLTRRLNVAGRDVTRYLIKLLLLRGYVFNRTADFETVRQIKEKFCYVGYDLELEKRLALETTTLVEKYTLPDGRVIPIGAERFEAPECMFNPALVDQESVGVGELVFDCINKADIDTRAEFYNHIVLSGGSTMYPGLPSRLEKEIKRLYFERVAKGNKVSMQKFKCRIEDPPRRKHMVFLGGAVLAEIMKDKTAFWMNKSEYEEQGPRVLRKCF
B9: IGFBP7 30-159 (Homo sapiens, UniProt Q16270); chain DTCGPCEPASCPPLPPLGCLLGETRDACGCCPMCARGEGEPCGGGGAGRGYCAPGMECVKSRKRRKGKAGAAAGGPGVSGVCVCKSRYPVCGSDGTTYPSGCQLRAASQRAESRGEKAITQVSKGTCEQG
B10: BZIP12 (Oryza sativa, UniProt Q0JHF1); sequence looked up; chain MMASRVMASSSPSHTASDLARFAAGRGGGGSAGLGSMNVEEILRGIYADMPTPALPLVGGDRPMSPLPAPDVAAAPRTAEEVWKEITGAGVAAAAGGVVPPAAAAAAAPAVVAGAGAGTGAEMTLEDFLAREGAVKEDEAVVTDPSAAKGQVVMGFLNGAEVTGGVTGGRSRKRHLMDPMDRAAMQRQKRMIKNRESAARSRERKQAYIAELESLVTQLEEENAKMFKEQEEQHQKRLKELKEMVVPVIIRKTSARDLRRTNSMEW
B11: SNAPC2 (Homo sapiens, UniProt Q13487); chain MKPPPRRRAAPARYLGEVTGPATWSAREKRQLVRLLQARQGQPEPDATELARELRGRSEAEIRVFLQQLKGRVAREAIQKVHPGGLQGPRRREAQPPAPIEVWTDLAEKITGPLEEALAVAFSQVLTIAATEPVTLLHSKPPKPTQARGKPLLLSAPGGQEDPAPEIPSSAPAAPSSAPRTPDPAPEKPSESSAGPSTEEDFAVDFEKIYKYLSSVSRSGRSPELSAAESAVVLDLLMSLPEELPLLPCTALVEHMTETYLRLTAPQPIPAGGSLGPAAEGDGAGSKAPEETPPATEKAEHSELKSPWQAAGICPLNPFLVPLELLGRAATPAR
B12: TFAM 43-245 (Homo sapiens, UniProt Q00059); sequence looked up; chain SSVLASCPKKPVSSYLRFSKEQLPIFKAQNPDAKTTELIRRIAQRWRELPDSKKKIYQDAYRAEWQVYKEEISRFKEQLTPSQIMSLEKEIMDKHLKRKAMTKKKELTLLGKPKRPRSAYNVYVAERFQEAKGDSPQEKLKTVKENWKNLSDSEKELYIQHAKEDETRYHNEMKSWEEQMIEVGRKDLLRRTIKKQRKYGAEE
B13: SSPN (Oryctolagus cuniculus, UniProt P82352); sequence looked up; chain MGKDRQPRGQQRQGDAAGPDDPGPKKGAGTREQRGEEEAQTCCGCRFPLLLALLQLALGVAVTVVGFLMASVSSSLLVRATPYWAGIIVCVVAYLGLFMLCVSYQVDERTCIQFSMKLLYFVLSALGLVVCVLAVAFAAHHYSLLTHLTCENAPDSCQCKLPSSEPLSRTFVYRDVTDCTSITGTFQVFLLVQMVLNLVCGLVCLVACFVMWKHRYQVFYVGVRMCPLSASEGQQQKV
B14: NEDD4L 492-581 (Homo sapiens, UniProt Q96PU5); chain HKVTQSFLPPGWEMRIAPNGRPFFIDHNTKTTTWEDPRLKFPVHMRSKTSLNPNDLGPLPPGWEERIHLDGRTFYIDHNSKITQWEDPRL
B15: LCOR 910-1211 (Homo sapiens, UniProt Q96JN0-3); sequence looked up; chain QTLKNMLDKEVKELRGEIFPSRDPITTAGQPLPGERLEIYVQSKMDEKNAHIPSESIACKRDPEQAKEEPGHIPTQHVEEAVNEVDNENTQQKDDESDAPCSSLGLSSSGSGDAARAPKSVPRPKRLTSSTYNLRHAHSLGSLDASKVTSEKEAAQVNPIMPKENGASESGDPLDEDDVDTVVDEQPKFMEWCAEEENQELIANFNAQYMKVQKGWIQLEKEGQPTPRARNKSDKLKEIWKSKKRSRKCRSSLESQKCSPVQMLFMTNFKLSNVCKWFLETTETRSLVIVKKLNTRLPGDVP
B16: NR4A2 1-165 (Homo sapiens, UniProt P43354); sequence looked up; chain MPCVQAQYGSSPQGASPASQSYSYHSSGEYSSDFLTPEFVKFSMDLTNTEITATTSLPSFSTFMDNYSTGYDVKPPCLYQMPLSGQQSSIKVEDIQMHNYQQHSHLPPQSEEMMPHSGSVYYKPSSPPTPTTPGFQVQHSPMWDDPGSLHNFHQNYVATTHMIEQ
B17: NFE2L2 99-160 (Homo sapiens, UniProt Q16236); chain GSANYSQVAHIPKSDALYFDDCMQLLAQTFPFVDDNEVSSATFQSLVPDIPGHIESPVFIATN
B18: PduE (Salmonella enterica, UniProt O31042); sequence looked up; chain MNTDAIESMVRDVLSRMNSLQGDAPAAAPAAGGTSRSAKVSDYPLANKHPEWVKTATNKTLDDFTLENVLSNKVTAQDMRITPETLRLQASIAKDAGRDRLAMNFERAAELTAVPDDRILEIYNALRPYRSTKEELLAIADDLENRYQAKICAAFVREAAGLYVERKKLKGDD
B19: SNAP29 (Homo sapiens, UniProt O95721); chain MSAYPKSYNPFDDDGEDEGARPAPWRDARDLPDGPDAPADRQQYLRQEVLRRAEATAASTSRSLALMYESEKVGVASSEELARQRGVLERTEKMVDKMDQDLKISQKHINSIKSVFGGLVNYFKSKPVETPPEQNGTLTSQPNNRLKEAISTSKEQEAKYQASHPNLRKLDDTDPVPRGAGSAMSTDAYPKNPHLRAYHQKIDSNLDELSMGLGRLKDIALGMQTEIEEQDDILDRLTTKVDKLDVNIKSTERKVRQL
Sequence of UniProt P40348 (whole entry, looked up): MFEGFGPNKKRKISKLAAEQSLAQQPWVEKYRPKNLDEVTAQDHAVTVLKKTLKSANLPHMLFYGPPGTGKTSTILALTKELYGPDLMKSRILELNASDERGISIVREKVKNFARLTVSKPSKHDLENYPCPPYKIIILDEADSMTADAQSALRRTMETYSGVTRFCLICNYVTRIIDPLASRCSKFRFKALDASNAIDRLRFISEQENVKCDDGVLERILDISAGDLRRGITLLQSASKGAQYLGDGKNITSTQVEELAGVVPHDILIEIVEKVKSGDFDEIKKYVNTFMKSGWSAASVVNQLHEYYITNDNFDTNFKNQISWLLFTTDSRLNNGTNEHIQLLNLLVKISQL
Sequence of UniProt P53490 (whole entry, looked up): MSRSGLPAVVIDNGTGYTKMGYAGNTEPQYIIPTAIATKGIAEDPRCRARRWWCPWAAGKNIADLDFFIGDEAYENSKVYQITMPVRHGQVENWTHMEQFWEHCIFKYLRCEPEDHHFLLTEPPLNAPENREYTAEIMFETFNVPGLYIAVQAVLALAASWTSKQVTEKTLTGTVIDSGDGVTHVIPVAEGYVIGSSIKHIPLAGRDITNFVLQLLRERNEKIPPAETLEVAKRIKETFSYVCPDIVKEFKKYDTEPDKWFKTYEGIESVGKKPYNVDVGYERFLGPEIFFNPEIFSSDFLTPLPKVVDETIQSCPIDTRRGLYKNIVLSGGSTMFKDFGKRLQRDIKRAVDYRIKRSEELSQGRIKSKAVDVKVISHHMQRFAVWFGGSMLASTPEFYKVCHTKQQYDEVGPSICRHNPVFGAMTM
Sequence of UniProt O43915 (whole entry, looked up): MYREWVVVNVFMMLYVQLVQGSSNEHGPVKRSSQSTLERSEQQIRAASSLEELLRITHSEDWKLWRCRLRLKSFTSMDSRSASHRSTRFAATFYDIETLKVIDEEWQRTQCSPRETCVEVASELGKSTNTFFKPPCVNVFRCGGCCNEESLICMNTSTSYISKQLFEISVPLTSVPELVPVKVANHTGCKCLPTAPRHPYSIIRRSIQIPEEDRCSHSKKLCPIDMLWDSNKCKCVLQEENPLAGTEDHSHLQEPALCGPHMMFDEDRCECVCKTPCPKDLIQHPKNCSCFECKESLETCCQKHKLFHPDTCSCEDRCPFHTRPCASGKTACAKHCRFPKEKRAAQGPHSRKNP
Sequence of UniProt P57768 (whole entry, looked up): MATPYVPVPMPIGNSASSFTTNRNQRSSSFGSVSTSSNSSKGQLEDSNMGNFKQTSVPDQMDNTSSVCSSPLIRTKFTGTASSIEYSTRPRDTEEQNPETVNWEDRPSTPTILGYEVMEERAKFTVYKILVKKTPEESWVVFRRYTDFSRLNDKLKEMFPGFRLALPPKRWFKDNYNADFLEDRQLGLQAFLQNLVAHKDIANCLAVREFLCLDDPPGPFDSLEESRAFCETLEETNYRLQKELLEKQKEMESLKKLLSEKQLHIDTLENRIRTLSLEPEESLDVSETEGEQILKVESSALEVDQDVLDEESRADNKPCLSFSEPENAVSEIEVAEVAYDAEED
Sequence of UniProt Q7Y0B9 (whole entry, looked up): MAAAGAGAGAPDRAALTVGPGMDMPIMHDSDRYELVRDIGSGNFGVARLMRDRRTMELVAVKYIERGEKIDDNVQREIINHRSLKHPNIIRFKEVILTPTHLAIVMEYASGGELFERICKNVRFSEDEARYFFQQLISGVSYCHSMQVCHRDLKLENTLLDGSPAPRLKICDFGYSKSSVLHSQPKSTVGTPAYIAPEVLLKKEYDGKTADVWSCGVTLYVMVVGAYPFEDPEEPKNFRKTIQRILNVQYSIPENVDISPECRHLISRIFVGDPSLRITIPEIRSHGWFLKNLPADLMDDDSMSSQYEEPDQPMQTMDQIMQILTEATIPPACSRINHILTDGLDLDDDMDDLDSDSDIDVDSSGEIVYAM
Sequence of UniProt Q9Y244 (whole entry, looked up): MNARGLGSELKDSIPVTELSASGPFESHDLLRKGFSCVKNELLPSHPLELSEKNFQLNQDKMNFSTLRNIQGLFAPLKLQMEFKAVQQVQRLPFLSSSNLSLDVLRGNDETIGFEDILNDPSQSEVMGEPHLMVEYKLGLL
Sequence of UniProt P37449 (whole entry, looked up): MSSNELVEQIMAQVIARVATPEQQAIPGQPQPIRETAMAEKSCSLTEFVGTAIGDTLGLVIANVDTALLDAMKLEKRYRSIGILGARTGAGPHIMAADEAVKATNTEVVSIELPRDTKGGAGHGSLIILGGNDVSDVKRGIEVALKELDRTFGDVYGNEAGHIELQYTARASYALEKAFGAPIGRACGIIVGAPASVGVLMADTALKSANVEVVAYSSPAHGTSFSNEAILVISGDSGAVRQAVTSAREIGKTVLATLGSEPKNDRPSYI
Sequence of UniProt Q5SXM2 (whole entry, looked up): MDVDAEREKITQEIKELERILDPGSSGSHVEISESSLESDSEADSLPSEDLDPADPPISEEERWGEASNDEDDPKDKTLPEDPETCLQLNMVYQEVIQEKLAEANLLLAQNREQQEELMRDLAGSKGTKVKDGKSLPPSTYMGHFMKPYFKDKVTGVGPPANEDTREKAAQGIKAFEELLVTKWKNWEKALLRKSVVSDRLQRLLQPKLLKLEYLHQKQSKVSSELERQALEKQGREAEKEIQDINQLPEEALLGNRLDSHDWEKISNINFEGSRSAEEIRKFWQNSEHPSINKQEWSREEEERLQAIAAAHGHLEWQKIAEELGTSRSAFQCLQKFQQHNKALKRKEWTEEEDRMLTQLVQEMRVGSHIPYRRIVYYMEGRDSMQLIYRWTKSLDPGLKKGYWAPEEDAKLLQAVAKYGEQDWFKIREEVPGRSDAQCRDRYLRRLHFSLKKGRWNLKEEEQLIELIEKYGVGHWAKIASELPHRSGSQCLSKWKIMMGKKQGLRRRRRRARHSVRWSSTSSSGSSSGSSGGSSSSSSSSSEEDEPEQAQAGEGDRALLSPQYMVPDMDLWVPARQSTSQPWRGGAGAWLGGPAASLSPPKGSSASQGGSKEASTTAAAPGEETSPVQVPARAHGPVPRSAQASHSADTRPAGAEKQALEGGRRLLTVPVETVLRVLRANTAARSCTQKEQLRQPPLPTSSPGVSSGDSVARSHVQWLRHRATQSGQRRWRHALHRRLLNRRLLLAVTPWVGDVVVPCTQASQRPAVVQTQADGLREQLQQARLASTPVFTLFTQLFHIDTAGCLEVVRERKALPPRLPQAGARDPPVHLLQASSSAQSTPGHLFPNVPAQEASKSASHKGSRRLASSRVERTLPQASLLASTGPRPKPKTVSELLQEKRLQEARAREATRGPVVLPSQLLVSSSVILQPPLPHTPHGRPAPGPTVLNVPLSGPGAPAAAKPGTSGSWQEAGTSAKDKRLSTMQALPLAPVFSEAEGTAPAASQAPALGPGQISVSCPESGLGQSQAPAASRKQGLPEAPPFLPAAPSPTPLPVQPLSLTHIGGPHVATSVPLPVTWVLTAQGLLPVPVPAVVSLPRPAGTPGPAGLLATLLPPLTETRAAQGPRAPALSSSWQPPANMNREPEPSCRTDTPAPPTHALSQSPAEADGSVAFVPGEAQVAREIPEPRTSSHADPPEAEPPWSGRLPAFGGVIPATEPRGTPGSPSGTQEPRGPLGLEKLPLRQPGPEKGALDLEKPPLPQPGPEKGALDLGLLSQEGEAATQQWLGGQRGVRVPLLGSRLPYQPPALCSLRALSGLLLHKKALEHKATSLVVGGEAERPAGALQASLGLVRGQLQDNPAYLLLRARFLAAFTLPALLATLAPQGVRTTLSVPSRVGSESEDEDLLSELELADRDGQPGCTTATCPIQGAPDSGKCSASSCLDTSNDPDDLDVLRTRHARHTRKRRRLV
Sequence of UniProt Q15022 (whole entry, looked up): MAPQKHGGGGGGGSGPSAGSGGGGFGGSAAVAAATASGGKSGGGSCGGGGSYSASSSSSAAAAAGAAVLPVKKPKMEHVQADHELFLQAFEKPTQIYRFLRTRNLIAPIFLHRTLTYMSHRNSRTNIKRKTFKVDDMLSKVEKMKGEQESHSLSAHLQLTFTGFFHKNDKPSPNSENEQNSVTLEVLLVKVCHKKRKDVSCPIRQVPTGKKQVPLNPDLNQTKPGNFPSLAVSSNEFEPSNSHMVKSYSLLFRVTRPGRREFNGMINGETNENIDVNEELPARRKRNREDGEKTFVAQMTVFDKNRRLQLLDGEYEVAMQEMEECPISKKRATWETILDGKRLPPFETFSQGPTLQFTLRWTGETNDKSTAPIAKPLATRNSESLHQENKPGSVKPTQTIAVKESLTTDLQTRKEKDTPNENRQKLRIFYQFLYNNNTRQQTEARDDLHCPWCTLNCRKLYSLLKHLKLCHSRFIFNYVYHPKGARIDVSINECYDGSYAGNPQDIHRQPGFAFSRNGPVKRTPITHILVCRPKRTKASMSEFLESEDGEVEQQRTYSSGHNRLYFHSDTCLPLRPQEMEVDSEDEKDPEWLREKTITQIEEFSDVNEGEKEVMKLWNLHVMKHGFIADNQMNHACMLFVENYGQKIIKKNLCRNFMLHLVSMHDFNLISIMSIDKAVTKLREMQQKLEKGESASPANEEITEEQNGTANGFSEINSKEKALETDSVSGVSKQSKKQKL
Sequence of UniProt Q15036 (whole entry, looked up): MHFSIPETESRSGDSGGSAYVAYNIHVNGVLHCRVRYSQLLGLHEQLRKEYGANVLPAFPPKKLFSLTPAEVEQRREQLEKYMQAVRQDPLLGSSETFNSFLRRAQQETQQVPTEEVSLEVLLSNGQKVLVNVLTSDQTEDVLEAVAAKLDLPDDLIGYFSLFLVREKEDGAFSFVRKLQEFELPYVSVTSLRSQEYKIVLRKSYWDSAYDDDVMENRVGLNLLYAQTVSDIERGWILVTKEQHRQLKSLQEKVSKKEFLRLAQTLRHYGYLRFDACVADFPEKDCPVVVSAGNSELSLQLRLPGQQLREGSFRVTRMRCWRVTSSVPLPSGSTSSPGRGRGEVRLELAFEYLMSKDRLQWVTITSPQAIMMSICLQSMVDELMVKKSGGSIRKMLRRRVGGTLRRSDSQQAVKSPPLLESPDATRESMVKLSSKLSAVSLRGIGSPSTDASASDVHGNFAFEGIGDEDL

Substance | partner | test | system | setting | binding
B1 (dnaG P16 domain 453-597) | dnaB (Geobacillus stearothermophilus, UniProt Q9X4C9) | NMR titration |  |  | binds
B2 (ranibizumab Fab) | VEGFD (Homo sapiens, UniProt O43915) | SPR | Fab |  | no binding
LGGLTNGSGRYISAAPGAEAKYRSASS (PUM1 774-800 (Homo sapiens, UniProt Q14671); sequence looked up) | CNOT1/CNOT2/CNOT3 C-terminal NOT module 1833-2361 | pull-down |  |  | binds
B3 (KtrA/KtrC heteromeric RCK ring) | ktrB 1-445 (Bacillus subtilis, UniProt O32081) | SEC |  |  | binds
B4 (POL30 1-258) | RFC2 (Saccharomyces cerevisiae, UniProt P40348) | cryo-EM |  |  | binds
B5 (GCN5) | PK1 (Oryza sativa japonica, UniProt Q2RAK2) | pull-down |  |  | binds
B6 (PSMG3 1-122) | POMP (Homo sapiens, UniProt Q9Y244) | cryo-EM |  |  | binds
B7 (TIM9 1-87) | TIM10 (Saccharomyces cerevisiae, UniProt P87108) | SEC |  |  | binds
B8 (Arp2) | Arp3 (Acanthamoeba castellanii, UniProt P53490) | negative-stain EM |  |  | binds
B9 (IGFBP7 30-159) | CD93 25-347 L284A (Homo sapiens, UniProt Q9NPY3) | ITC |  | 25 °C | binds
B10 (BZIP12) | SAPK8 (Oryza sativa, UniProt Q7Y0B9) | pull-down |  |  | binds
B11 (SNAPC2) | SNAPC4 (Homo sapiens, UniProt Q5SXM2) | cross-linking |  |  | binds
B12 (TFAM 43-245) | POLRMT 43-1230 (Homo sapiens, UniProt O00411) | cryo-EM |  |  | binds
B13 (SSPN) | SGCB (Oryctolagus cuniculus, UniProt Q28635) | cryo-EM structure |  |  | binds
B14 (NEDD4L 492-581) | NaV1.7/calmodulin NaV1.7 C-terminus (Homo sapiens) | SEC |  |  | binds
B15 (LCOR 910-1211) | SUZ12 (Homo sapiens, UniProt Q15022) | pull-down |  |  | binds
B16 (NR4A2 1-165) | Ncoa1 1-369 (Mus musculus, UniProt P70365) | pull-down |  |  | binds
B17 (NFE2L2 99-160) | EP300 TAZ2 1723-1812 x (Homo sapiens, UniProt Q09472) | circular dichroism |  |  | binds
SSHSSLTERHKILHRLLQEGSPSDITTLSVEPD (NCOA1 678-710 (Homo sapiens, UniProt Q15788); sequence looked up) | NR1I2 130-434 L411W (Homo sapiens, UniProt O75469) | crystal structure | peptide |  | binds
B18 (PduE) | PduB (Salmonella enterica Typhimurium LT2, UniProt P37449) | cross-linking |  |  | binds
SNX16 (Homo sapiens, UniProt P57768) | SNX17 (Homo sapiens, UniProt Q15036) | pull-down |  |  | binds
B19 (SNAP29) | FBLIM1 (Homo sapiens, UniProt Q8WUP2) | pull-down |  |  | binds
